# Results pooled from the literature.
# Compare with care: the assays were run in different laboratories. “And” joins repeats or separate records; there may be more than shown. ± gives the spread as reported.
SMILES,test,test system,setting,scale,endpoint,result
COc1cccc(OC)c1-c1cc(C(=O)NC2(C(=O)O)C3CC4CC(C3)CC2C4)nn1-c1ccc(C(=O)N(C)CCOCCOCCN(C)C(=O)[C@H](CCCCNC(=O)[C@H](CC(C)C)NC(=O)C2OC2C(=O)O)NC(=O)CN2CCN(CC(=O)[O-])CCN(CC(=O)[O-])CCN(CC(=O)[O-])CC2)cc1C(C)C.[177Lu+3] (mixture of isomers),,"mouse, HT-29 xenograft","168 h post injection, biodistribution",baseline: tumour over muscle uptake,tumour-to-muscle ratio,1.59
O=C(c1ccccc1)N1C(c2ccc(OCC3CCN(CCCF)C3)cc2)c2ccc(O)cc2CC12CC2 (stereo not shown),,"C57BL/6J mouse, plasma","oral, 25 mg/kg",,AUC(0-inf),2830 ng·h/mL
CC[C@H](C)[C@@H]1NC(=O)[C@H](Cc2ccc(O)cc2)NC(=O)CCCSC[C@@H](C(=O)N(CC(=O)N[C@@H](CC(C)C)C(=O)NCC(N)=O)Cc2ccc(F)cc2)NC(=O)[C@H](CC(N)=O)NC(=O)[C@H](CCC(N)=O)NC1=O,,human,"intranasal, 400 µg single dose",,drug-related headache,33%
COC1C=COC2(C)Oc3c(C)c(O)c4c(c3C2=O)C2=NC3(CCN(CC(C)C)CC3)NC2=C(NC(=O)C(C)=CC=CC(C)C(O)C(C)C(O)C(C)C(OC(=O)Nc2cnccn2)C1C)C4=O (stereo not shown),,"CD-1 mouse female, plasma","intravenous, 5 mg/kg",,elimination rate constant,4.89e-05 s⁻¹
C=CC(=O)Nc1cc(Nc2nccc(-c3cn(C)c4ccccc34)n2)c(OC)cc1N(C)CCNC,storage stability,human dried blood spot,"30 d, -80 °C, LLOQ level",,recovery,98.2%
O=C(CCCCCCCCCCCCCCCCC(=O)Oc1c2n(cc(C(=O)NCc3c(F)cc(F)cc3F)c1=O)CC1OC3CCC(C3)N1C2=O)Oc1c2n(cc(C(=O)NCc3c(F)cc(F)cc3F)c1=O)CC1OC3CCC(C3)N1C2=O (stereo not shown),,human plasma,"1 µM, 24 h, 1% methanol",,prodrug hydrolysed,45%
Nc1nc2cnc(C(=O)N3CCOC[C@@H]3c3ccc(C(F)(F)F)cc3)cc2c2c1COC2,,"human, plasma",,,fraction unbound,0.108
O=C([O-])CN1CCN(CC(=O)[O-])CCN(CC(CCCc2ccccc2[N+](=O)[O-])N(CC(=O)[O-])CC(=O)[O-])CC1.[177Lu+3] (stereo not shown),TLC,human serum,"86 h, pH 7, 37 °C",,intact radiolabelled complex,99.9 ± 0.1%
CN(Cc1ccccc1)C(=O)CN1CCN(CC(=O)[O-])CCN(CC(=O)[O-])CC1.[18F-].[Sc+3],,"mouse, stomach","intravenous, 1 h",,tracer uptake,0.1 %ID/g
CCc1cnc(NC(=O)c2cc(S(=O)(=O)N3CCOCC3)ccc2N(C)C2CCCC2)s1,,"mouse, serum","10 mg/kg, 3 doses",,Amylase,698 IU/L
Cc1ccc(=O)n(-c2ccc(O)cc2)c1,,"BALB/c mouse, plasma","oral, 1.0 mmol/kg",,CL/F,317 ± 30.3 mL/min/kg
CC(=O)N([O-])CCCCCNC(=O)CCC(=O)N([O-])CCCCCNC(=O)CCC(=O)N([O-])CCCCCN.[89Zr+4],radio-TLC,aqueous buffer,"5 d, pH 8.5, 37 °C, 89Zr-labelled complex, together with: DTPA 1000-fold excess",,intact complex,85.5 ± 0.9%
CN(Cc1ccccc1)C(=O)CN1CCN(CC(=O)[O-])CCN(CC(=O)N(C)Cc2ccccc2)CC1.[18F-].[Sc+3],,"mouse, liver","intravenous, 1 h",,tracer uptake,0.62 %ID/g
CN1CCC[C@]1(C)/C=C/S(=O)(=O)NC(=O)Nc1c2c(cc3c1CCC3)CCC2,"item: respiratory, thoracic, mediastinal disorders",human,"oral, 100 mg twice daily, 14 days, multiple ascending dose",,subjects with adverse event,0%
CC(C)[C@H](NC(=O)[C@H](Cc1ccccc1)NC(=O)[C@H](Cc1ccccc1)NC(=O)OCC1c2ccccc2-c2ccccc21)C(=O)N[C@@H](CCC(=O)O)C(=O)N[C@@H](CCC(=O)O)C(N)=O,CD spectroscopy,peptide nanofibres,,,random coil content,48.7%
N#Cc1cccc(-c2ccc3ncc(-c4cc(F)cc(F)c4)c(N4CCC(N)CC4)c3c2)c1OC1OC(C(=O)O)C(O)C(O)C1O (stereo not shown),,"healthy male, faeces","oral, 20 mg, 120 h, 14C-paltusotine dosed",baseline: dose,radioactivity recovered,20.4%
CN([O-])C(=O)CN1CCN(CC(=O)N(C)[O-])CCN(Cc2ccccn2)CC1.[89Zr+4],radio-TLC,human serum,"7 days, run 3",,intact complex,86.3%
COc1ccc([C@@H]2CC(=O)c3c(O)cc(O[C@@H]4O[C@H](CO)[C@@H](O)[C@H](O)[C@H]4O[C@@H]4O[C@@H](C)[C@H](O)[C@@H](O)[C@H]4O)cc3O2)cc1O,,"Sprague-Dawley rat, male, lean, plasma","oral, 100 mg/kg",,AUC(0-t),43.2 ± 12.4 ng·h/mL
CN(Cc1ccccc1)C(=O)CN1CCN(CC(=O)[O-])CCN(Cc2cccc(C(=O)[O-])n2)CC1.[177Lu+3],,"mouse, muscle","intravenous, 1 h",,tracer uptake,0.18 %ID/g
OC1(C(F)(F)F)CCN(c2nc(Nc3ccnc(C(F)(F)F)c3)nc(-c3cccc(C(F)(F)F)n3)n2)C1 (stereo not shown),,"Sprague-Dawley rat, both sexes, plasma","oral gavage, 5 mg/kg, day 1",,AUC(0-t),6100 ± 654 ng·h/mL
COCC1CN(C2CCN(c3cc(OC)c(Nc4ncc(Br)c(Nc5ccc6c(c5P(C)(C)=O)OCCO6)n4)cc3C)CC2)C1,first-in-human trial,human,"oral, 240 mg once daily",treatment-related leading to dose suspension,adverse events,100%
O=C([O-])CN1CCN(CC(=O)[O-])CCN(Cc2cccc(C(=O)[O-])n2)CC1.[177Lu+3],,"mouse, bone","intravenous, 1 h",,tracer uptake,0.51 %ID/g
CC(C)(O)c1ncc([S@](N)(=O)=NC(=O)Nc2c3c(cc4c2CCC4)CCC3)s1,item: eye disorders,healthy human,"oral, 300 mg, SDD formulation",,subjects with TEAEs,17%
COc1cccc(OC)c1-c1cc(C(=O)NC2(C(=O)O)C3CC4CC(C3)CC2C4)nn1-c1ccc(C(=O)N(C)CCCN(C)C(=O)[C@H](CCCCNC(=O)[C@H](CC(C)C)NC(=O)C2OC2C(=O)O)NC(=O)CN2CCN(CC(=O)[O-])CCN(CC(=O)[O-])CCN(CC(=O)[O-])CC2)cc1C(C)C.[177Lu+3] (mixture of isomers),,"mouse, HT-29 xenograft","168 h post injection, biodistribution",baseline: tumour over muscle uptake,tumour-to-muscle ratio,7.56
[123I]c1ccc2nc(-c3ccc(-n4ccnn4)nc3)cn2c1,,"male Wistar rat, kidney","intravenous, 4 MBq, 5 min",,tracer uptake,2.29 %ID/g
CCCCN1C(=O)c2cccc3c(NCCCN4CCOCC4)ccc(c23)C1=O,,ethyl acetate,,,fluorescence lifetime,9.6 ns
Cc1ncsc1-c1ccc(CNC(=O)[C@@H]2C[C@@H](O)CN2C(=O)[C@@H](NC(=O)COCC(C)(COCCOCCOCCNC(=O)C[C@@H]2N=C(c3ccc(Cl)cc3)c3c(sc(C)c3C)-n3c(C)nnc32)COCCOCCOCCNC(=O)C[C@@H]2N=C(c3ccc(Cl)cc3)c3c(sc(C)c3C)-n3c(C)nnc32)C(C)(C)C)cc1,,"male C57BL/6 mouse, plasma","subcutaneous, 5 mg/kg, 2 h, single dose",,concentration,3550 ng/mL
N#C[C@@H]1CCCN1C(=O)CNC(=O)c1ccnc2ccc(OCCCN3CCN(C(=O)CCc4ccc5c(c4)CN4CCN6CC(=O)[O][68Ga-]([O]C(=O)C4)([O]5)[O]c4ccc(CCC(=O)N5CCN(CCCOc7ccc8nccc(C(=O)NCC(=O)N9CCC[C@H]9C#N)c8c7)CC5)cc4C6)CC3)cc12,,"BALB/c nude mice, U-87 MG tumour",120 min post-injection,baseline: tumour over liver,tumour-to-organ ratio,10.3 ± 1.26
C/C(N)=N/C(=N\S(=O)(=O)c1ccc(C(F)(F)F)cc1)N1C[C@H](c2ccccc2)C(c2ccc(Cl)cc2)=N1,,rat,,baseline: in vivo over in vitro CLint,empirical scaling factor,29
CCCCCCCCCCCCCCCC(=O)N[C@@H](CCCCN)C(=O)N[C@@H](CCCCN)C(=O)N[C@@H](CO)C(=O)N[C@@H](CCCNC(=N)N)C(=O)N[C@@H](C)C(=O)N[C@@H](CC(C)C)C(=O)N[C@@H](Cc1ccccc1)C(N)=O,,"human patients, plasma","intravenous, 0.3 mg/kg over 2 h",,Vss,0.14 L/kg
COC(=O)[C@@]1(C(C)C)C=C(C(=O)Nc2cccc(C(=O)Nc3ccc(Nc4nccc(-c5cccnc5)n4)c(C)c3)c2)C(=O)CC1,,"rat, blood plasma","1 µM, 60 min",,compound remaining,88.7% and 91.6%
O=C(Nc1cnccc1-c1ccc([18F])cc1)c1ccnc(NC(=O)C2CC2)c1,,"FVB/NJ mice (both sexes), skin","intravenous, dose not given, 120 min, together with: tariquidar 15 mg/kg i.v. pre-dose",,SUV,0.23
CCC1CNC(CC)CN(C(C(=O)[O-])c2ccc(C(=O)[O-])cc2)C(CC)CN(CC(=O)[O-])C(CC)CN1.[Mn+2] (stereo not shown),ICP-MS,"BALB/c mouse, liver","intravenous, 0.05 mmol/kg, 30 min, without anaesthesia",,Mn content,3.35 ± 0.38 µg/g
Cc1nn(-c2nc3c(F)cc(F)cc3s2)c(O)c1C(c1ccc(C(F)(F)F)cc1)c1c(C)nn(-c2nc3c(F)cc(F)cc3s2)c1O,,"ICR mouse, plasma","intraperitoneal, 10 mg/kg",,elimination rate constant,3.72e-05 s⁻¹ and 2.14e-05 s⁻¹ and 2.86e-05 s⁻¹
O=C(Nc1cnccc1-c1ccc([18F])nc1)c1ccnc(NC(=O)C2CC2)c1,ex vivo gamma counting,"GSK-3β transgenic mice, early-stage, cortex","intravenous, 120 min, mean, P-gp inhibitor pretreatment, together with: tariquidar 15 mg/kg iv",,SUV,0.063
CN(CCCO)Cc1ccc(-c2noc(-c3ccc(OCC[18F])c(C(F)(F)F)c3)n2)cc1F,,"Sprague-Dawley rat, male, brain","intravenous, 5 min",,brain uptake,0.93 ± 0.02 %ID/g
C[C@]12C[C@H](c3ccc(S(C)(=O)=O)cc3)C3=C4CCC(=O)C=C4CC[C@H]3[C@@H]1CC[C@@]2(O)C(F)(F)C(F)(F)F,item: compound (parent),"healthy human volunteers, pooled plasma","oral, 5 mg daily, day 28, 1 h",,plasma concentration,22.5 ng/mL
C=C(NC(=O)c1csc(-c2nc3c(cc2O)-c2nc(cs2)C(=O)NC(C(C)O)C(=O)NC(=C(C)OC)c2nc(cs2)C(=O)NC2c4nc(cs4)C(=O)NC(COC(=O)c4c5c6c(cccc6n4O)COC(=O)C(OC4CC(C)(O)C(N(C)C)C(C)O4)C2OC5)c2nc-3cs2)n1)C(N)=O (stereo not shown),metabolic stability,"monkey, liver microsomes",2 µM,,half-life,2.26 h
CN(Cc1ccccc1)C(=O)CN1CCN(CC(=O)N(C)Cc2ccccc2)CCN(Cc2cccc(C(=O)[O-])n2)CC1.[44Sc+3],,"mouse, lung","intravenous, 1 h",,tracer uptake,1.39 %ID/g
CN(O)C(=O)CCC(=O)NCCCN(CCCCN(CCCNC(=O)CCC(=O)N(C)O)C(=O)CCC(=O)N(C)O)C(=O)CCC(=O)N(C)O.[89Zr],radio-TLC,aqueous buffer,"1 d, pH 7.2, 37 °C, 89Zr-labelled complex, together with: FeCl3 100-fold excess",,intact complex,74.5 ± 0.3%
